Assay results from different studies.
Each numbered part is a random draw from the data of one study; scales do not carry over between parts. Changes are numbered by the printed parent chain.

Study 1
Target: RNA binding protein fox-1 homolog 2, RRM domain, GST-SBP tag (RBFOX2, Homo sapiens, UniProt O43251-10, residues 100-194)
Technique: RNA Bind-n-Seq
Molecule type: RNA
Sample: in vitro
Concentration: 365 nM
Notes: natural RNA segment, single round, ends assumed
Reference: no-protein control
Direction: higher = stronger binding
Shared flanks, not repeated: GGGAGUUCUACAGUCCGACGAUC … UGGAAUUCUCGGGUGCCAA
Residues (chain): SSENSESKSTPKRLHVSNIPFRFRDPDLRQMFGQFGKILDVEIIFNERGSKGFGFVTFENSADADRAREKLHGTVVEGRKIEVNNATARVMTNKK
Oligonucleotide | RBNS enrichment (R)
CAUAGAACUUAUAAAGGUCCCAGGAUCACUUUUAAGGGAUUUUUAUUAGUUUAAAGGUAAAUAAAGUCAGCUGAAUCUACAUGUCUCUUGUUUUAUUUCUCUCUAAACUU | 0.423
CGGCCGUUUCCUUUCUUUAGCCAGCCGUCCUGGUACUGUAGCUUAGGGGUUGAUGGUGGAUGAAAUUGAUUUCUGGCUGGUUACUAAGGUGCCUGCUAGCCAUUGUAUAA | 0.678
UCGCUGACCCAGAGGCGCUGUGCCUGCAUAUCAUCCACCACCACCCUAGCCCAGCCUUCCCACUGCCCCAGGAAAAGCUCUUCUCCUGGCCACCUCUGCCCCCCAGCACC | 0.853
AGCUGUGGGCAGUGGAGGCAGAUAGCACUUCUGAGGGAGACUCAUUAAAGCAUUGGCUUUGCUACCAGCUGUCUUCUGUAUUGUGGUUCAGUUUACCUUCAGUGGAAAUC | 0.774
UUCUAGAGGCUCUGGGAGCAAAUUACAUUCAUCACAUUACCUCUGCUCUCUCAAGAUUAAAGUCUUUCAGCAACAUUCUUUAUUGUCAUCAUAAGGAAAAACUUUUAUCG | 0.456
CAACUUCGGAAGAUGCAGUUGUACGUGGCUAUUCCAUUCCUAAAGGCACAACAGUCAUUACAAAUCUUUAUUCUGUUCACUUUGAUGAAAAGUACUGGAAAGAUCCAGAC | 0.271
GAACUGUAUUUUUGCCUUUAAAAUUAAAUAAUAUAACGUGAAUAAAUGACCCUAUCUUUGUAACUGCGGUGGUUUCUGUUUGCCAGGUGUAAGGGUUGUCAUGGCUGUGG | 1.07
GCACACGUUAGGAGGAGUCCUCAUCAGCUGUUCUCAUUGCCAGUGAGAUAUAUUCAGUAUUGUAGAUACUACACUAAUUUCCAACAUAAGAGGCAGGAAGAGUUUUGAUU | 0.447
CUCCUCGCAUCGUGAGCUGAGGCUGCAGCAUUGGAACAAAACAGCAUUACAUCACUUUUCCUUUAAUUUUUUUUUCCUUUUGUUUUGUUGUUGUUUGUUGUUCAUUUAAA | 4.75
AUCUUUUUAACAGCACUGUAGCAUUUUUCUUCGUUUAGAACCUUUACUGACUCCAUUGAGUCCCUGAGCAUCUGUACAUAGCCUUCACCACCCCCAGUCUCAAUCCUGUG | 0.837
CUAUCCACCCCCCUCCUUGCUGGCCUACUCUGACAUAAUACAAGUGUCUUCUUGCCUUGAGGAACCUUAAUGGCAUUGUGGCCACCACAUGUGACUCUUCUCCGUGACUC | 0.383
CUGAGGUCUCAGAAGAGAAACUUGACAGUGUCUGGUCCAUGGGGCUGCUCAGAAAAGCGCUGCUCUUGUAUGUCUCAUUGGUAUUGGAAAAAUAAACCUGUACAACCUGC | 0.432

Study 2
Target: PABPC1L2, full length, GST fusion (mouse, UniProt A0ABA7IW68)
Technique: RNAcompete
Molecule type: RNA
Sample: in vitro
Concentration: 20 nM
Notes: 7-mer, probes averaged, single round
Reference: mean of 7-mers
Direction: higher = stronger binding
Residues (chain): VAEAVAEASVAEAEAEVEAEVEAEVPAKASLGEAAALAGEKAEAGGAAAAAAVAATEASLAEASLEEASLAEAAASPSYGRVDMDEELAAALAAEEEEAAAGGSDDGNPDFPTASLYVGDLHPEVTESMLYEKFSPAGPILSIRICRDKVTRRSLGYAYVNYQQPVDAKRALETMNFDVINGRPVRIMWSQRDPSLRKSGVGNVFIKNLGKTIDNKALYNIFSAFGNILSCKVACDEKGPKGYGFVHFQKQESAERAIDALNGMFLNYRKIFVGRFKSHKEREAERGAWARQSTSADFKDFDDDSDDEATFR
Oligonucleotide | 7-mer Z-score
GAACGGU | -0.0047
AGUCUCG | -0.215
CGCGGUC | -0.291
ACCGAGG | 0.000733
CUCGGCA | -0.0699
CCCCUCG | -0.458
CUGCUUA | -0.36
ACUGGUU | -0.284
CUCCGUU | -0.418
AGUUCGG | -0.213
UUCGUUG | -0.487
AGAACUG | -0.0355
ACUUCUG | -0.248
AUAACUC | -0.17
CAUCCCG | -0.224
GACUUUA | -0.106
AGCCGUU | -0.416
UCUAUUU | -0.302
GUAAGUG | -0.11
UGGACGG | 0.321
CCCGUUC | -0.489
CCUAGGC | -0.4
AAGCAGG | 0.318
GGACUAA | 0.251
UUUCCGC | -0.431

Study 3
Target: UBE2L3 UBC core domain (UniProt P68036)
UniProt P68036, sequence (whole entry, looked up): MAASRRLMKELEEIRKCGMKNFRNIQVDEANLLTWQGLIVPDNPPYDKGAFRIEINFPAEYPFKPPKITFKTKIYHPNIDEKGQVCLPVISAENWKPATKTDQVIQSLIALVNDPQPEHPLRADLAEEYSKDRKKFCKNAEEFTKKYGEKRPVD
Technique: yeast two-hybrid
Sample: yeast
Notes: mostly zero background
Reference: not given
Direction: higher = stronger interaction
B1: NSMCE1 RING domain (UniProt Q8WV22); chain RETYPDAVKICNICHSLLIQGQSCETCGIRMHLPCVAKYFQSNAEPRCPHCNDYWPHEIPKV
B2: RNF150 RING domain (UniProt Q9ULK6); chain DKETESDFDNCAVCIEGYKPNDVVRILPCRHLFHKSCVDPWLLDHRTCPMCKMNILKALGIP
B3: TRIM52 RING domain (UniProt Q96A61); chain PMQTLQEEAVCAICLDYFKDPVSISCGHNFCRGCVTQLWSKEDEEDQNEEEDEWEEEEDEEAV
B4: RFPL2 RING domain (UniProt O75678); chain MAALFQEASSCPVCSDYLEKPMSLECGCAVCLKCINSLQKEPHGEDLLCCCSSMVSRKNKIRR
B5: PEX2 RING domain (UniProt P28328); chain DNTLATSGKECALCGEWPTMPHTIGCEHIFCYFCAKSSFLFDVYFTCPKCGTEVHSLQPLK
B6: RNF32 RING domain (UniProt Q9H0A6); chain SLLQGDSVQPCPICKEEFELRPQVLLSCSHVFHKACLQAFEKFTNKKTCPLCRKNQYQTRVIH
B7: RNF175 RING domain (UniProt Q8N4F7); chain LPTRSLSDNICAVCGQKIIVELDEEGLIENTYQLSCNHVFHEFCIRGWCIVGKKQTCPYCKEKVDLKRMIS
Sequence | lacZ reporter activity
KRQCSDVDDICSICQAEFQKPILLICQHIFCEECMTLWFNREKTCPLCRTVISDHINKW (RNFT1 RING domain (UniProt Q5M7Z0)) | 0
B1 (NSMCE1 RING domain) | 0
B2 (RNF150 RING domain) | 0
LKQVSIRENCCSLCCDEVADTQLKPCGHSDLCMDCALQLETCPLCRKEIVSRIRQI (RSPRY1 RING domain (UniProt Q96DX4)) | 0
B3 (TRIM52 RING domain) | 0
B4 (RFPL2 RING domain) | 0
B5 (PEX2 RING domain) | 0
B6 (RNF32 RING domain) | 0
B7 (RNF175 RING domain) | 0

Study 4
Target: CCND2, cyclin fold, Cln2 fusion (human)
Technique: yeast growth competition, sequencing
Sample: yeast
Notes: weak parent motif
Reference: not given
Direction: higher = stronger binding
Starting sequence: CDC6 docking peptide (human); TLKGRRLVFDNQL
Change | normalised enrichment score
Q12M | 0.213
G4A | 0.35
V8D | 0.738
L13G | 0.361
Q12W | 0.526
N11D | 0.644
Q12L | 0.6
N11E | 0.18
Q12K | -0.0154
G4S | -0.398
L7H | 0.0233
R5W | -0.0142
G4Q | 0.114
R6I | 0.148
L2T | 0.0284
L7W | 0.336
L7E | -0.126
L7Q | 0.615
